# Experimental data from different studies.
# Lines come from different studies, so protocols differ. ± marks the error that the study gave.
# B1: GCN4/KAR3/VIK1 353-729/341-647 C391L/C469A/C517A/C566V/C655V/E382C/C377V/C436A/C536A/C596A/C640A/K372C (Saccharomyces cerevisiae); M4M 10-Å cross-link; chain 1 SVKELEDKVEELLSKNYHLENEVARLKKLVKDTELGMKELNEILIKEETVRRTLHNELQCLRGNIRVYLRIRPALKNLENSDTSLINVNEFDDNSGVQSMEVTKIQNTAQVHEFKFDKIFDQQDTNVDVFKEVGQLVQSSLDGYNVAIFAYGQTGSGKTFTMLNPGDGIIPSTISHIFNWINKLKTKGWDYKVNAEFIEIYNENIVDLLRSDNNNKEDTSIGLKHEIRHDQETKTTTITNVTSVKLESEEMVEIILKKANKLRSTASTASNEHSSRSHSIFIIHLSGSNAKTGAHSYGTLNLVDLAGSERINVSQVVGDRLRETQNINKSLSVLGDVIHALGQPDSTKRHIPFRNSKLTYLLQYSLTGDSKTLMFVNISPSSSHINETLNSLRFASKVNSTRLVSRK; chain 2 SVKELEDKVEELLSKNYHLENEVARLKKLVSKQEKFYNDTYNTVEKELLRSRRLENSIIEQCGTMRVYAYVMEQNLPENLLFDYENGVITQGLSEHVYKFNRVIPHLKVSEDKFFTQEYSVYHDMALNQKKNFNLISLSTTPHGSLRESLIKFLAEKDTIYQKQYVITLQFVFLSDDEFSQDMLLDYSHNDKDSIKLKFEKHSISLDSKLVIIENGLEDLPLNFSADEHPNLPHSGMGIIKVQFFPRDSKSDGNNDPVPVDFYFIELNNLKSIEQFDKSIFKKESAETPIALVLKKLISDTKSFFLLNLNDSKNVNKLLTISEEVQTQLAKRKKKLT
# B2: UGT1A9 (Homo sapiens, UniProt O60656); chain GKLLVVPMDGSHWFTMRSVVEKLILRGHEVVVVMPEVSWQLGRSLNCTVKTYSTSYTLEDLDREFKAFAHAQWKAQVRSIYSLLMGSYNDIFDLFFSNCRSLFKDKKLVEYLKESSFDAVFLDPFDNCGLIVAKYFSLPSVVFARGILCHYLEEGAQCPAPLSYVPRILLGFSDAMTFKERVRNHIMHLEEHLLCHRFFKNALEIASEILQTPVTEYDLYSHTSIWLLRTDFVLDYPKPVMPNMIFIGGINCHQGKPLPMEFEAYINASGEHGIVVFSLGSMVSEIPEKKAMAIADALGKIPQTVLWRYTGTRPSNLANNTILVKWLPQNDLLGHPMTRAFITHAGSHGVYESICNGVPMVMMPLFGDQMDNAKRMETKGAGVTLNVLEMTSEDLENALKAVINDKSYKENIMRLSSLHKDRPVEPLDLAVFWVEFVMRHKGAPHLRPAAHDLTWYQYHSLDVIGFLLAVVLTVAFITFKCCAYGYRKCLGKKGRVKKAHKSKTH
# B3: CTNNB1 T393A (Homo sapiens, UniProt P35222); sequence looked up; chain MATQADLMELDMAMEPDRKAAVSHWQQQSYLDSGIHSGATTTAPSLSGKGNPEEEDVDTSQVLYEWEQGFSQSFTQEQVADIDGQYAMTRAQRVRAAMFPETLDEGMQIPSTQFDAAHPTNVQRLAEPSQMLKHAVVNLINYQDDAELATRAIPELTKLLNDEDQVVVNKAAVMVHQLSKKEASRHAIMRSPQMVSAIVRTMQNTNDVETARCTAGTLHNLSHHREGLLAIFKSGGIPALVKMLGSPVDSVLFYAITTLHNLLLHQEGAKMAVRLAGGLQKMVALLNKTNVKFLAITTDCLQILAYGNQESKLIILASGGPQALVNIMRTYTYEKLLWTTSRVLKVLSVCSSNKPAIVEAGGMQALGLHLTDPSQRLVQNCLWTLRNLSDAAAKQEGMEGLLGTLVQLLGSDDINVVTCAAGILSNLTCNNYKNKMMVCQVGGIEALVRTVLRAGDREDITEPAICALRHLTSRHQEAEMAQNAVRLHYGLPVVVKLLHPPSHWPLIKATVGLIRNLALCPANHAPLREQGAIPRLVQLLVRAHQDTQRRTSMGGTQQQFVEGVRMEEIVEGCTGALHILARDVHNRIVIRGLNTIPLFVQLLYSPIENIQRVAAGVLCELAQDKEAAEAIEAEGATAPLTELLHSRNEGVATYAAAVLFRMSEDKPQDYKKRLSVELTSSLFRTEPMAWNETADLGLDIGAQGEPLGYRQDDPSYRSFHSGGYGQDALGMDPMMEHEMGGHHPGADYPVDGLPDLGHAQDLMDGLPPGDSNQLAWFDTDL
# B4: POL30 (Saccharomyces cerevisiae, UniProt P15873); Cy3 label; sequence looked up; chain MLEAKFEEASLFKRIIDGFKDCVQLVNFQCKEDGIIAQAVDDSRVLLVSLEIGVEAFQEYRCDHPVTLGMDLTSLSKILRCGNNTDTLTLIADNTPDSIILLFEDTKKDRIAEYSLKLMDIDADFLKIEELQYDSTLSLPSSEFSKIVRDLSQLSDSINIMITKETIKFVADGDIGSGSVIIKPFVDMEHPETSIKLEMDQPVDLTFGAKYLLDIIKGSSLSDRVGIRLSSEAPALFQFDLKSGFLQFFLAPKFNDEE
# Sequence of UniProt P12259 (whole entry, unmodified, looked up): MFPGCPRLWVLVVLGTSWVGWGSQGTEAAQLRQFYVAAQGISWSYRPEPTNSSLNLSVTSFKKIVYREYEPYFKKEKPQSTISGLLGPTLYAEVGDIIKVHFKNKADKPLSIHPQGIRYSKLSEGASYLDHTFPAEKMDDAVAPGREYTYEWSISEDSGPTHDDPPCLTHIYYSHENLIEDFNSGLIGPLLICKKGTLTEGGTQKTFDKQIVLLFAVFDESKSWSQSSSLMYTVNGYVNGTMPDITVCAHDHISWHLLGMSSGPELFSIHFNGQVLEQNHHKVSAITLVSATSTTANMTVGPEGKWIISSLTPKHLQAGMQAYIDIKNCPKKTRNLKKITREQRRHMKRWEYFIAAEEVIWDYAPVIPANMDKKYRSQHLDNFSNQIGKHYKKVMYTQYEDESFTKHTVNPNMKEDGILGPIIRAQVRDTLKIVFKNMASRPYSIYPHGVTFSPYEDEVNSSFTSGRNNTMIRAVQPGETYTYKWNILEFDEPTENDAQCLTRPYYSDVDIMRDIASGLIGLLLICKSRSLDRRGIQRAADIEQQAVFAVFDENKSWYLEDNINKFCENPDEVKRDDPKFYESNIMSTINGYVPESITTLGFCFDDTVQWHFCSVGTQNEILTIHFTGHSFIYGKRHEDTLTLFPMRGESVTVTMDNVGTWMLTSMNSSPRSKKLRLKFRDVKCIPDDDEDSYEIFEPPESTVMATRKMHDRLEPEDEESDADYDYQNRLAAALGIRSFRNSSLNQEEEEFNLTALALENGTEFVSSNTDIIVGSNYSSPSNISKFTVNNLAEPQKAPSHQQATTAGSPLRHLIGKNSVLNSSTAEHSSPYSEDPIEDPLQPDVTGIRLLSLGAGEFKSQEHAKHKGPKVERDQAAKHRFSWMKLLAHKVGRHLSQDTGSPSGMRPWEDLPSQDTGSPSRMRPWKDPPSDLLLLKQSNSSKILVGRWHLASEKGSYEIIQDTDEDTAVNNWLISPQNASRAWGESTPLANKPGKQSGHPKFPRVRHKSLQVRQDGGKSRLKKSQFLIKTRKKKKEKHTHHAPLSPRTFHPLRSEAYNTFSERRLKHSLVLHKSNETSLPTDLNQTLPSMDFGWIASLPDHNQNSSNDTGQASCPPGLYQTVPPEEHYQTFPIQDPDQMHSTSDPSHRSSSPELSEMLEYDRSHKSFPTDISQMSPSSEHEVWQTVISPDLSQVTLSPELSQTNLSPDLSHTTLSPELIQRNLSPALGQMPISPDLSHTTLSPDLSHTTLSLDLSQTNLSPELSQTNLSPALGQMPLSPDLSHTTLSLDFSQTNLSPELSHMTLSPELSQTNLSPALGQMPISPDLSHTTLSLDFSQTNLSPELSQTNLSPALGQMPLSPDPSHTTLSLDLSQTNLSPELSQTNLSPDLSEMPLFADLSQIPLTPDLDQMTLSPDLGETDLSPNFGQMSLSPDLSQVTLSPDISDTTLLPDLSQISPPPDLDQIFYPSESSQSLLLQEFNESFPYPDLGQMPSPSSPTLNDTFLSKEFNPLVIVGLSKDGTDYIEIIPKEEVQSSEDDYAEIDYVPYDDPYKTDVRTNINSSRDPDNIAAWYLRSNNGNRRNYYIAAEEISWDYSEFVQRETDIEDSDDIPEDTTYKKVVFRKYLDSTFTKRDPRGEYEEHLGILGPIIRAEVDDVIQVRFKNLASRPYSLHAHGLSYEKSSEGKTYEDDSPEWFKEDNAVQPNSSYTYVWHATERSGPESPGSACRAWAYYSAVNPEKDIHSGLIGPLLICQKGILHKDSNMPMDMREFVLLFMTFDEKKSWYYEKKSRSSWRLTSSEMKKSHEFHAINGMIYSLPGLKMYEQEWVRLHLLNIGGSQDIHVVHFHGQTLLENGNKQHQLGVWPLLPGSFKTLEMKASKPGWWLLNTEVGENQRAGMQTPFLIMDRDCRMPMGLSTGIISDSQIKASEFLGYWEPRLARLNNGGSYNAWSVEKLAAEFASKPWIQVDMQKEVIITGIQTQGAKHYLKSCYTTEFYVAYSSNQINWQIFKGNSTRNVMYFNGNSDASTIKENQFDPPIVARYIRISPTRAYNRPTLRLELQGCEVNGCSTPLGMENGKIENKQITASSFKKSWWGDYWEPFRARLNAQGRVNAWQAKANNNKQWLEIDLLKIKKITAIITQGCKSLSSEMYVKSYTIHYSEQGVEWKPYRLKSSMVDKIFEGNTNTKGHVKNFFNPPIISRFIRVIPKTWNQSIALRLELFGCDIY
# Sequence of UniProt Q5SKM8 (whole entry, looked up): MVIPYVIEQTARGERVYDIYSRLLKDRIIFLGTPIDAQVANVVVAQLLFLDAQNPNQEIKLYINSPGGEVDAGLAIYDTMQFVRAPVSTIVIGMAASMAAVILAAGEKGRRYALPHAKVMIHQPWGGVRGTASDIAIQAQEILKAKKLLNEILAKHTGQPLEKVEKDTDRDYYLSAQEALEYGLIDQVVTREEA
# Sequence of UniProt Q61851 (whole entry, looked up): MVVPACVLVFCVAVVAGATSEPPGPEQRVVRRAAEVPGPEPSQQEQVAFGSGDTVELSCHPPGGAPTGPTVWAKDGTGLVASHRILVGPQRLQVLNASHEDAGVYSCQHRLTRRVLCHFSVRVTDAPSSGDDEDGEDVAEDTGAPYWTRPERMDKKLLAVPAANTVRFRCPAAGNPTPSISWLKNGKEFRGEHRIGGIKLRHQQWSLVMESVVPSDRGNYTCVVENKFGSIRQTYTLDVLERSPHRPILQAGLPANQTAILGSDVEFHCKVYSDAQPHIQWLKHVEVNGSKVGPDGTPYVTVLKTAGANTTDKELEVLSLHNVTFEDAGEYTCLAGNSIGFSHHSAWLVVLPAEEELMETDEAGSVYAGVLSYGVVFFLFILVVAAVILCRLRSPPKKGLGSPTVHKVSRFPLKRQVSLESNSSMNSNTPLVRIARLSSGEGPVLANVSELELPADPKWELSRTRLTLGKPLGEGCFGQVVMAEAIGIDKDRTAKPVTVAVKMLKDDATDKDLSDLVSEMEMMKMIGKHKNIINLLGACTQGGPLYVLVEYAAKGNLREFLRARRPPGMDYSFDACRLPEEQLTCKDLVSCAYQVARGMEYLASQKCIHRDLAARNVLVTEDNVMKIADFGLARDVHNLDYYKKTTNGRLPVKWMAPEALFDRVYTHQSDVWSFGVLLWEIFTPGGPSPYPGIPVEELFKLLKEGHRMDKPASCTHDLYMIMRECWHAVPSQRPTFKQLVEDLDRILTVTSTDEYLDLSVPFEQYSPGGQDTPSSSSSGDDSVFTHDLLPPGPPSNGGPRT
# Sequence of UniProt Q9LX31 (whole entry, looked up): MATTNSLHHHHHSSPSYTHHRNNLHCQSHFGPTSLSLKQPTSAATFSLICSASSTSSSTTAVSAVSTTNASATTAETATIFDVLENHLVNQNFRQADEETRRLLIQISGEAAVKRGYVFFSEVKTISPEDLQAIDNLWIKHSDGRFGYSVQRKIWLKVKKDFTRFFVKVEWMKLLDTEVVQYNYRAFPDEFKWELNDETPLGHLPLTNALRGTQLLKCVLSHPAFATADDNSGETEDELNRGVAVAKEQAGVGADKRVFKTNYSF
# Sequence of UniProt Q9YGY0 (whole entry, looked up): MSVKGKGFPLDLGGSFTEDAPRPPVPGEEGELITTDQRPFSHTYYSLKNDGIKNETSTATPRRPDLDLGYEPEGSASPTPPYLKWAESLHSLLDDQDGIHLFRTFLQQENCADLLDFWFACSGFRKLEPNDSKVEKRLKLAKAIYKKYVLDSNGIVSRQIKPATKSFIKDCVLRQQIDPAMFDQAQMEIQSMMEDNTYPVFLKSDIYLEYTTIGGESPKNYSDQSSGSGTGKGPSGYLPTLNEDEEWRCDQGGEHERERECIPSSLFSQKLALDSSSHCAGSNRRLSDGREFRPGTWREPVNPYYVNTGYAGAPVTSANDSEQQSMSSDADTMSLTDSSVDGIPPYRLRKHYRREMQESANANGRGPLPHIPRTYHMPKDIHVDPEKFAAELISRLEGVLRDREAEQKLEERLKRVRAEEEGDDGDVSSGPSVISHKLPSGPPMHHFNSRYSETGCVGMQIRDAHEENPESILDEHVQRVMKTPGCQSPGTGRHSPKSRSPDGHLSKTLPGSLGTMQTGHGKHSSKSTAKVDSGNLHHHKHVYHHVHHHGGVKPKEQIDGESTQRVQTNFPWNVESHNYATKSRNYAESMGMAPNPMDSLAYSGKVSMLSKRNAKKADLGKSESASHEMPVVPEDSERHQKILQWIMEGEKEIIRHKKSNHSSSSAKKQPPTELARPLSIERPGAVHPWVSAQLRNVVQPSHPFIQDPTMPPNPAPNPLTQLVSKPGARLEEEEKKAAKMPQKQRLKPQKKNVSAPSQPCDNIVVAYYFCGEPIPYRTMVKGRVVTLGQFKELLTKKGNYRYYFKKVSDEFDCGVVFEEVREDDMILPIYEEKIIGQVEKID
# Sequence of UniProt P70618 (whole entry, unmodified, looked up): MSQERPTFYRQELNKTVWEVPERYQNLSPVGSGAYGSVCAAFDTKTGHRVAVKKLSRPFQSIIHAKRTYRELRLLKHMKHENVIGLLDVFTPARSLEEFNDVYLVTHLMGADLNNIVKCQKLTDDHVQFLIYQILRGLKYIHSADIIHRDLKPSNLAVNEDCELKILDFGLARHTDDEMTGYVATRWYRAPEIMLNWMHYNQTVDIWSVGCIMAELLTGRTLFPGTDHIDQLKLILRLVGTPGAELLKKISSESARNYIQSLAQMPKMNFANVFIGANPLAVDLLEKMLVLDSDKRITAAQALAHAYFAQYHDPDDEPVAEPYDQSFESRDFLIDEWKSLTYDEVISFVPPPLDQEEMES
Molecule,tested on,test,test system,conditions,how to read,endpoint,value
B1,microtubules tubulin polymer,TIRF motility assay,,20 min,higher = more stopped,stopped microtubules,80%
"TFPI (Homo sapiens, UniProt P10646-1)",F5 B-domain deleted 811-1490 R709Q/R1545Q (UniProt P12259),"thrombin generation inhibition, inhibitor",,no heparin,,IC50,6.8 nM
"MYBPC3 (Homo sapiens, UniProt Q14896)",ACTC1 F-actin (Oryctolagus cuniculus),co-sedimentation,,apparent,,molecule per partner,0.73 ± 0.11 C2 per actin
clpX fragment (Thermus thermophilus),"clpP 1-194 (Thermus thermophilus, UniProt Q5SKM8)","peptidase activity, activator",,together with: bortezomib 10 µM,,half-maximal activation ratio,2.4 ClpX6/ClpP14 ratio
"cpSRP43 mature full length (Arabidopsis thaliana, UniProt O22265)",GUN4 mature (UniProt Q9LX31),"suppression of heat-induced aggregation, light scattering",,"5 µM, 5 min, 44 °C, apparent",,apparent solubilization constant,0.15 µM
"CDC42 (Homo sapiens, UniProt P60953)","WAS fragment F271C, Cys271 4-DMN label",solvatochromic fluorescence,,"25 °C, together with: GTP-γS","reference: Cdc42(GDP), higher = more fluorescence",fluorescence increase,32 fold
"HSPA1A (Homo sapiens, UniProt P0DMV8)","MAPT (Homo sapiens, UniProt P10636-6)",co-IP,HeLa,"not purified, together with: DnaJA1 over-expression","reference: control, higher = more Hsp70 co-precipitated",relative co-precipitation,2.76 fold
FGF8b (Homo sapiens),"FGFR3 isoform IIIc (unknown, UniProt Q61851)","cell proliferation, MTT",BaF3-FGFR3c,"20 nM, 48 h, together with: completely desulfated heparin 4.9 µg/mL","reference: FGF 1 with heparin, higher = more proliferation",cell proliferation,67%
YAERPSRDHLYLPLEP (NFATC3 D-site peptide (Homo sapiens)),"Mapk14 N159K/E160S/E163T, pT180, pY182 (Rattus norvegicus, UniProt P70618)","kinase activity, inhibitor, competitive kinase inhibition assay",peptide,together with: ATP 1 mM,,IC50,> 100000 nM
B2 (UGT1A9),O=c1c(O)c(-c2cccc(O)c2)oc2cc(O)ccc12,steady-state kinetics,,"pH 7.4, 37 °C",,Vmax/Km,227 µL/min/mg
B3 (CTNNB1 T393A),"Axin (Xenopus, UniProt Q9YGY0)",immunoblot,C57MG,,higher = more phosphorylation,phosphorylated to total β-catenin ratio,0.9 ratio
B4 (POL30),"REV1/RAD30 binary complex, Cy5 label (Saccharomyces cerevisiae)",single-molecule TIRF,,pH 7.5,,koff,0.55 ± 0.02 s⁻¹
SUMO1 fragment D85C (Arabidopsis thaliana),SAE2/SAE1a (Arabidopsis thaliana),SUMO conjugation,,42 °C,"reference: native AtSUMO1, higher = faster conjugation",SUMO conjugation rate,24%
